Measured values pooled from the literature.
Parts stem from different laboratories: compare values within a part only. Several values in a cell are separate wells, animals, samples, runs or records.
Chain of UniProt P09769 (whole entry, looked up): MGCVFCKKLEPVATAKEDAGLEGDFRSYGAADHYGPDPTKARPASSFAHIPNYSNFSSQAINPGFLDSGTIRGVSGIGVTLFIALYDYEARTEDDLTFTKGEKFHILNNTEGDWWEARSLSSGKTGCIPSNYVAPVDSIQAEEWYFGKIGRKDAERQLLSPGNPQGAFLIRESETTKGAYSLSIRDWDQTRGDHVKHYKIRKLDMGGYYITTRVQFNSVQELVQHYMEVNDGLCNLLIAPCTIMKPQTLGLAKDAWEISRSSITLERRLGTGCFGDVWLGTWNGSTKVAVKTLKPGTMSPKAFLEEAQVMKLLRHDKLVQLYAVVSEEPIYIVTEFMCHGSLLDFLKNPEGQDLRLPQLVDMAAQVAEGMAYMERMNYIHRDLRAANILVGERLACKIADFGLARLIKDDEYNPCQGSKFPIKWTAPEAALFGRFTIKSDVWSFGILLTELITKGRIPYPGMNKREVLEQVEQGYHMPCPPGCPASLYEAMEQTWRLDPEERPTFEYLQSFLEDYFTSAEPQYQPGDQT
Chain of UniProt P42679 (whole entry, looked up): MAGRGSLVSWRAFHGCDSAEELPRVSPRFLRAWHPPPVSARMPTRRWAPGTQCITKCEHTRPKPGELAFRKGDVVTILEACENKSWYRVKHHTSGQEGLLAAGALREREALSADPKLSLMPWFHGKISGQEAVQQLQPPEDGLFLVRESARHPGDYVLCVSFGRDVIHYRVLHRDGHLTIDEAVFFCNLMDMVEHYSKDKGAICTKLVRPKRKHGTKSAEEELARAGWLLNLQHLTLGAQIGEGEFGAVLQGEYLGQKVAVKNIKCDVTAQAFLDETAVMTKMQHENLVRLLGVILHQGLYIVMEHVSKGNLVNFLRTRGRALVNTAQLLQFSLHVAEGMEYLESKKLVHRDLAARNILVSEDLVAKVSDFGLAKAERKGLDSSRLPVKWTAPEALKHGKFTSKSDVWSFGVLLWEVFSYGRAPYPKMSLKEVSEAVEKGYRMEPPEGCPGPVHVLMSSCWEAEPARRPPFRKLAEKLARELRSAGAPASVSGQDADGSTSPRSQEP
Chain of UniProt Q9UM73 (whole entry, looked up): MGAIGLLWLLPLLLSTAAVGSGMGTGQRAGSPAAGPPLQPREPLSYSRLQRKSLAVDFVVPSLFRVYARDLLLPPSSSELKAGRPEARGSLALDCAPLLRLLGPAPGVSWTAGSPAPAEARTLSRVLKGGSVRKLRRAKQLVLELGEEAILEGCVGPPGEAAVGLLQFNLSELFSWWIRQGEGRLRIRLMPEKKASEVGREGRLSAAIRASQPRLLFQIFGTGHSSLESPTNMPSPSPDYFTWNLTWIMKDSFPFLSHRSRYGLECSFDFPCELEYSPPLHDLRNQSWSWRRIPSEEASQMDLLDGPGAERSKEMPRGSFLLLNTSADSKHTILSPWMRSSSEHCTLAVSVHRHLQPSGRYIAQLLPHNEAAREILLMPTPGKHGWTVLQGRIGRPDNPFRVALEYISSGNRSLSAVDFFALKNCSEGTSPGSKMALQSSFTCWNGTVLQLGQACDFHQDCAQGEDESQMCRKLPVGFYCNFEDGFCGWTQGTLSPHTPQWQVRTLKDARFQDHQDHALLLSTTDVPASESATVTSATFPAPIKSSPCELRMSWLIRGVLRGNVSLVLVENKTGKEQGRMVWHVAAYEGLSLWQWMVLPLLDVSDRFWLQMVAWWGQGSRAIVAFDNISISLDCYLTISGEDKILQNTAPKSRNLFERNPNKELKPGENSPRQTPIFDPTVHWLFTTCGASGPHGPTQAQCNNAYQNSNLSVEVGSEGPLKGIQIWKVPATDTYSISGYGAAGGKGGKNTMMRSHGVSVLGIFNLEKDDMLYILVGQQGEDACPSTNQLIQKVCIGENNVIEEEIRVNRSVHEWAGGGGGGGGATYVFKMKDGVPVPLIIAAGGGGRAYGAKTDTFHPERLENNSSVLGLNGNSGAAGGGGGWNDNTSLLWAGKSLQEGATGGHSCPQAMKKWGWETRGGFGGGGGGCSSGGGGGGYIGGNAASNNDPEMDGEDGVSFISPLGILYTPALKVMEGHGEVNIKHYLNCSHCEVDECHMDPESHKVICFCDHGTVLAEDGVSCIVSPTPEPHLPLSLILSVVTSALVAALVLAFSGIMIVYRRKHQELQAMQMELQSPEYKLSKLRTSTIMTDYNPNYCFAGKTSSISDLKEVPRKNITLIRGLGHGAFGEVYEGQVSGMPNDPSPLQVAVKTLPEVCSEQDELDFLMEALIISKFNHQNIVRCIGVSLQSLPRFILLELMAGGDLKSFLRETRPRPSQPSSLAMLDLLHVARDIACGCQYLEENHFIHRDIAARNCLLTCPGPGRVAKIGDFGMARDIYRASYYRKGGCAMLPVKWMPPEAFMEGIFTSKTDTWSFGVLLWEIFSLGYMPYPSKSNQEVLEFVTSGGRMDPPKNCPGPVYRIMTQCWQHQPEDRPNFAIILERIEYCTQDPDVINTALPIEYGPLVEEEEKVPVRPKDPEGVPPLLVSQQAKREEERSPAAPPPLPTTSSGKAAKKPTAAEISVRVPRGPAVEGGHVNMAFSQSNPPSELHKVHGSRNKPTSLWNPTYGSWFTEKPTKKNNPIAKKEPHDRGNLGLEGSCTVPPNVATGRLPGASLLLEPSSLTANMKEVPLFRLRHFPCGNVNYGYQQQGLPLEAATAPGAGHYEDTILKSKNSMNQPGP
Chain of UniProt P06213 (whole entry, looked up): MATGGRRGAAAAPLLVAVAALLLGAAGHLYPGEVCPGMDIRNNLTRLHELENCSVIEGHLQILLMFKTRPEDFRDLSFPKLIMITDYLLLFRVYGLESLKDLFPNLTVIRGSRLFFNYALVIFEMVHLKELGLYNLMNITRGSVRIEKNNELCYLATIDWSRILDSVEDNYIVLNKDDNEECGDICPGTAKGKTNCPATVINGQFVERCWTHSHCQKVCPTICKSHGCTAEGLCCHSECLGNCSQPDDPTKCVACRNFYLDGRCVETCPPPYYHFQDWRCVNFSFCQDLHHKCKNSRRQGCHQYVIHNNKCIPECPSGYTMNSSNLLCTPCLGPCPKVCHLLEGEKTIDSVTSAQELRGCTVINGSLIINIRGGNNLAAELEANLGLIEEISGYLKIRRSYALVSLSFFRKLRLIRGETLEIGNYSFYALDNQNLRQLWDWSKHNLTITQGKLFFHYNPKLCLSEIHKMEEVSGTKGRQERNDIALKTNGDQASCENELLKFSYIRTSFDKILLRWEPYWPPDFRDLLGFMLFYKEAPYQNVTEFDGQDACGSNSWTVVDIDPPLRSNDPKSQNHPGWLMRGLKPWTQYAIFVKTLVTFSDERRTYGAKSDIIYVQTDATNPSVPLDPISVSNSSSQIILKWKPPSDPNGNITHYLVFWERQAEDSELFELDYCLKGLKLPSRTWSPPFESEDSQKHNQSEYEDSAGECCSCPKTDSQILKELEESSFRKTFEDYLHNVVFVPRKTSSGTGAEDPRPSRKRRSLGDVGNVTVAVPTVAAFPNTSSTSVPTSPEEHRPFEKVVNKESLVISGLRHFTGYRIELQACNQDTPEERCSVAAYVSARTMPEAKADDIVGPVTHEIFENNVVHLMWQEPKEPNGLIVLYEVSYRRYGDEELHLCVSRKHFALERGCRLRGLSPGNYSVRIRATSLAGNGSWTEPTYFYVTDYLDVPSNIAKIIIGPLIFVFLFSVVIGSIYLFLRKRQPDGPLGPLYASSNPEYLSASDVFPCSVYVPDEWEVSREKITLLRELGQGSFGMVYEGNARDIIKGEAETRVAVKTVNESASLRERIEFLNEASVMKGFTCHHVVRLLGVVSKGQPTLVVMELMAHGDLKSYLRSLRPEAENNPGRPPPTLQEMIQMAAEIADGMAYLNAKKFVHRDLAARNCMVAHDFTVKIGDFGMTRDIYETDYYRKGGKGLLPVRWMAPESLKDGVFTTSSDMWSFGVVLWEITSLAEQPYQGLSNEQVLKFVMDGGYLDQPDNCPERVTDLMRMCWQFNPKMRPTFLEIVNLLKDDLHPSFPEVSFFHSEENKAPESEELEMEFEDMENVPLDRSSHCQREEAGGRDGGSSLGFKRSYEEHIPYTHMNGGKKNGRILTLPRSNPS
Chain of UniProt P31749 (whole entry, looked up): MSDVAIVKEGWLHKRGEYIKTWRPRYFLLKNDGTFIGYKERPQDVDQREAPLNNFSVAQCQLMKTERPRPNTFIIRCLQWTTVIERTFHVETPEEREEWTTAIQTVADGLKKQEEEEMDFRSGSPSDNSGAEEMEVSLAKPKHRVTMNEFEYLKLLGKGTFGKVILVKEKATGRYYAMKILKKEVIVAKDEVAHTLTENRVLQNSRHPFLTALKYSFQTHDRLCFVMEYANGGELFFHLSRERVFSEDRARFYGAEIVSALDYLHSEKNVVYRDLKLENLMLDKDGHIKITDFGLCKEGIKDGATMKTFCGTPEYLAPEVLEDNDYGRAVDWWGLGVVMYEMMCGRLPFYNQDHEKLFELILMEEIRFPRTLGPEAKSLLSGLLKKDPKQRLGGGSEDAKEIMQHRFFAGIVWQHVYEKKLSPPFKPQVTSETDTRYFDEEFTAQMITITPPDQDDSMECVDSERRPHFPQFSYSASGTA

Study 1 — cell line: normal-adjacent epithelial organoid; read-out: cell viability; method: CellTiter-Glo; species: human; medium: patient-derived organoid; tested at: 1 µM; reference: DMSO; quantity: viability
SMILES = CNC(=O)c1cc(C(=O)N[C@H]2[C@@H]3COC[C@@H]32)cc2c1O[C@@H](CF)[C@@H]2c1ccccc1; value = 111%
SMILES = C[C@@H](NC(=O)Nc1cc2[nH]ncc2c(CO)n1)c1ccccc1; value = 66.1% and 62%
SMILES = O=C(NNS(=O)(=O)c1ccccc1F)c1cc(F)cc(-c2ccccn2)c1; value = 110%
SMILES = CCC(=O)N[C@H]1CC[C@@H](C(=O)N(C)c2ccc(-c3nc4ccccc4o3)cc2)C1; value = 73.3% and 62.3%
SMILES = Cn1cncc1[C@](O)(COc1ccc(C#N)cc1-c1ccc(OC(F)(F)F)cc1)c1ccc(C#N)cc1; value = 28.8% and 34%
SMILES = CN(C)[C@H]1CCN(c2cc(-c3ccccc3)nc3ccnn23)C1; value = 122%
SMILES = COc1cc(-c2cn(C3CCc4c(F)cccc4N(CC(F)(F)F)C3=O)nn2)ccc1-n1cnc(C)c1 (stereo not shown); value = 108% and 112%
SMILES = CC(=O)N1CCC(c2ccc(C(=O)NC3=NCCN3)cc2C(F)(F)F)CC1; value = 93% and 94.4%

Study 2 — read-out: enzyme activity; mode: inhibitor; tested at: 10 µM; quantity: inhibition
Target: Calcium/calmodulin-dependent protein kinase type II subunit alpha (CAMK2A, Homo sapiens, UniProt Q9UQM7)
Chain of UniProt Q9UQM7 (whole entry, looked up): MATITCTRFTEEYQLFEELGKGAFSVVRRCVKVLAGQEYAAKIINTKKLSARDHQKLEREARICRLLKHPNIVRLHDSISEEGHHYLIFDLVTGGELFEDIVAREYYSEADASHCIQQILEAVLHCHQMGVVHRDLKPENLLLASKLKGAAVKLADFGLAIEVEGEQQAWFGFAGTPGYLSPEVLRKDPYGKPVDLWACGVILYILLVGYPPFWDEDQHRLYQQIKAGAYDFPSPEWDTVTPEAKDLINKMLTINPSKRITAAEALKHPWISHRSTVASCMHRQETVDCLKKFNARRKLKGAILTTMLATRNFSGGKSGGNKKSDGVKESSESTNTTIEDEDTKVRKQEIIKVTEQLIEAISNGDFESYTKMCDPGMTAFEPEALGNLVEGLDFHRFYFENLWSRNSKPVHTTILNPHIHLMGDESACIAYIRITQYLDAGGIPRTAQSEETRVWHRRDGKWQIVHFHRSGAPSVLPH
SMILES = CC1=C(/C=C/C(C)=C\C=C\C(C)=C\C(=O)O)C(C)(C)CCC1; value = -16%
SMILES = O=C(COc1ccc(Cl)cc1)N1CCN(Cc2ccc3c(c2)OCO3)CC1; value = 6%
SMILES = CC1(C)OC(c2ccc(S(N)(=O)=O)cc2)=C(c2cccc(F)c2)C1=O; value = 3%
SMILES = CC(=O)O[C@H]1CC(=O)OC(C)(C)[C@@H]2CC(=O)[C@]3(C)[C@H](CC[C@@]4(C)[C@H](c5ccoc5)OC(=O)[C@H]5O[C@]543)[C@@]12C; value = -20%
SMILES = CC(=O)Oc1cc(C(F)(F)F)ccc1C(=O)O; value = -6%

Study 3 — organism: Leishmania donovani; strain: DD8; medium: promastigotes; quantity: promastigote number
SMILES: C[C@@H]1[C@H](O)[C@@H](C)/C=C/C=C/C=C/C=C/C=C/C=C/C=C/[C@H](O[C@@H]2O[C@H](C)[C@@H](O)[C@H](N)[C@@H]2O)C[C@@H]2O[C@](O)(C[C@@H](O)C[C@@H](O)[C@H](O)CC[C@@H](O)C[C@@H](O)CC(=O)O[C@H]1C)C[C@H](O)[C@H]2C(=O)O
setting = 660 µM, 24 h; value = 524000 and 522000
setting = 33330 µM, 48 h; value = 1550 and 1250
setting = 660 µM, 48 h; value = 326000 and 406000
setting = 1660 µM, 72 h; value = 54800 and 78500
setting = 3330 µM, 48 h; value = 51500
setting = 6660 µM, 72 h; value = 1260 and 1570
setting = 60 µM, 24 h; value = 2.04e+06 and 2.06e+06
setting = 30 µM, 24 h; value = 1.26e+06 and 1.27e+06

Study 4 — read-out: enzyme activity; mode: inhibitor; tested at: 0.5 µM; reference: control; quantity: remaining activity
SMILES: C[S+]([O-])c1ccc(-c2nc(-c3ccncc3)c(-c3ccc(F)cc3)[nH]2)cc1 (stereo not shown)
target = cAMP-dependent protein kinase catalytic subunit PRKX (PRKX, Homo sapiens, UniProt P51817); value = 99.3%
target = Tyrosine-protein kinase Fgr (FGR, Homo sapiens, UniProt P09769); value = 92.7%
target = Serine/threonine-protein kinase Nek11 (NEK11, Homo sapiens, UniProt Q8NG66); value = 81.3%
target = Serine/threonine-protein kinase NLK (NLK, Homo sapiens, UniProt Q9UBE8); value = 53.8%
target = ALK tyrosine kinase receptor (ALK, Homo sapiens, UniProt Q9UM73); value = 105%
target = PAS domain-containing serine/threonine-protein kinase (PASK, Homo sapiens, UniProt Q96RG2); value = 99.1%
target = Proto-oncogene tyrosine-protein kinase Src (SRC, Homo sapiens, UniProt P12931); value = 92.6%
target = Vascular endothelial growth factor receptor 3 (FLT4, Homo sapiens, UniProt P35916); value = 119%
target = Serine/threonine-protein kinase TAO3 (TAOK3, Homo sapiens, UniProt Q9H2K8); value = 103%
target = Serine/threonine-protein kinase MRCK alpha (CDC42BPA, Homo sapiens, UniProt Q5VT25); value = 94.3%
target = MAP/microtubule affinity-regulating kinase 3 (MARK3, Homo sapiens, UniProt P27448); value = 101%
target = Cyclin-dependent kinase 3, with cyclin E (CDK3, Homo sapiens, UniProt Q00526); value = 94.6%
target = Homeodomain-interacting protein kinase 1 (HIPK1, Homo sapiens, UniProt Q86Z02); value = 104%
target = LIM domain kinase 1 (LIMK1, Homo sapiens, UniProt P53667); value = 91.3%
target = Serine/threonine-protein kinase 25 (STK25, Homo sapiens, UniProt O00506); value = 111%
target = RAC-alpha serine/threonine-protein kinase (AKT1, Homo sapiens, UniProt P31749); value = 102%
target = Megakaryocyte-associated tyrosine-protein kinase (MATK, Homo sapiens, UniProt P42679); value = 95.6%
target = Tyrosine-protein kinase ITK/TSK (ITK, Homo sapiens, UniProt Q08881); value = 97%
target = Insulin receptor (INSR, Homo sapiens, UniProt P06213); value = 88.9%

Excerpt of the above (study 3):
setting = 3330 µM, 48 h; value = 51500
setting = 6660 µM, 72 h; value = 1260 and 1570
setting = 60 µM, 24 h; value = 2.04e+06 and 2.06e+06
setting = 30 µM, 24 h; value = 1.26e+06 and 1.27e+06
